Assay results pooled from the literature.
Each numbered part is a random draw from the data of one study; scales do not carry over between parts. Changes are numbered by the printed parent chain.

Sample 1 — method: DHFR PCA, deep sequencing; matrix: yeast; together with: (+)-ABA 0.0091 µM; reference: wild-type fitted maximum; direction: higher = stronger binding
Target: ABI1, truncated, D143A, DHFR fusion (Arabidopsis thaliana)
Setting: methotrexate growth selection, single substitutions
Starting sequence: PYL1, truncated, DHFR fusion (Arabidopsis thaliana); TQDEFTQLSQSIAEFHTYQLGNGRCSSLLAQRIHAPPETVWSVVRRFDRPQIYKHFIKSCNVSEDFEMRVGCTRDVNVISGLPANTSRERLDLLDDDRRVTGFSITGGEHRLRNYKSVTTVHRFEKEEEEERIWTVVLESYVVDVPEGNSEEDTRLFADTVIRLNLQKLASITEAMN
Variant	relative binding score [%]
D96G	-3.27
A30P	1.35
I162C	5.42
V44S	-5.07
S140I	-0.31
T154A	3.58
V137G	2.04
H16W	-2.64
R69E	17.2
G81Y	8.01
V121A	10.6
T173C	65.5
I79Y	24.8
T39L	53.1
V161W	70

Sample 2 — target: UBE2C UBC core domain (UniProt O00762); method: yeast two-hybrid; matrix: yeast; setting: mostly zero background; reference: not given; direction: higher = stronger interaction
B1: ZMYND11 RING domain (UniProt Q15326); chain DEIDWETENHDWYCFECHLPGEVLICDLCFRVYHSKCLSDEFRLRDSSSPWQCPVCRSIKKKNTNKQEM
B2: TRIM41 RING domain (UniProt Q8WV44); chain PVQTLQEEAVCAICLDYFTDPVSIGCGHNFCRVCVTQLWGGEDEEDRDELDREEEEEDGEEE
B3: VPS8 RING domain (UniProt Q8N3P4); chain TRGLNPKQDYCSICLQQYKRRQEMADEIIVFSCGHLYHSFCLQNKECTVEFEGQTRWTCYKCSSSNKVGKLSE
B4: RUFY1 RING domain (UniProt Q96T51); chain QALKGHAWLKDDEATHCRQCEKEFSISRRKHHCRNCGHIFCNTCSSNELALPSYPKPVRVCDSCHTLLLQRCSSTAS
B5: RNF182 RING domain (UniProt Q8N6D2); chain AESQASDELECKICYNRYNLKQRKPKVLECCHRVCAKCLYKIIDFGDSPQGVIVCPFCRFETCLPDDEV
B6: MARCHF1 RING domain (UniProt Q8TCQ1); chain TAPRSQSRLSVCPSTQDICRICHCEGDEESPLITPCRCTGTLRFVHQSCLHQWIKSSDTRCCELCKYDFIMETKLKPLRKWE
B7: ZNRF4 RING domain (UniProt Q8WWF5); chain VRTFTWHNDLCAICLDEYEEGDQLKILPCSHTYHCKCIDPWFSQAPRRSCPVCKQSVAATEDSF
B8: MKRN3 RING domain (UniProt Q13064); chain FAVQRGMDKVCGICMEVVYEKANPNDRRFGILSNCNHSFCIRCIRRWRSARQFENRIVKSCPQCRVTSELVIPSE
Construct (chain): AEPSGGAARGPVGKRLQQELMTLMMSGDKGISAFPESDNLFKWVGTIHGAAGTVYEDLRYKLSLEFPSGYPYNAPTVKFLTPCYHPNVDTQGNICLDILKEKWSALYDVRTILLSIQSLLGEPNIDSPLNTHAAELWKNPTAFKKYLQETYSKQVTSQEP
Sequence	lacZ reporter activity
LEALSSDFLACKICLEQLRAPKTLPCLHTYCQDCLAQLADGGRVRCPECRETVPVPPEGV (TRIM56 RING domain (UniProt Q9BRZ2))	0
DDVLTKDAGECVICLEELLQGDTIARLPCLCIYHKSCIDSWFEVNRSCPEHPAD (ZNRF1 RING domain (UniProt Q8ND25))	0
ASEEEFQFLRCQQCQAEAKCPKLLPCLHTLCSGCLEASGMQCPICQAPWPLGADTP (PML RING domain (UniProt P29590))	0
B1 (ZMYND11 RING domain)	0
EIKEYKARLTCPCCNTRKKDAVLTKCFHVFCFECVRGRYEARQRKCPKCNAAFGAHDFHR (RNF40 RING domain (UniProt O75150))	0
B2 (TRIM41 RING domain)	0
B3 (VPS8 RING domain)	0
B4 (RUFY1 RING domain)	0
B5 (RNF182 RING domain)	0
B6 (MARCHF1 RING domain)	0
B7 (ZNRF4 RING domain)	0
FAEQPSVKLCCQLCCSVFKDPVITTCGHTFCRRCALKSEKCPVDNVKLTVVVNNI (TRAF7 RING domain (UniProt Q6Q0C0))	0
ASPKIFQKTKCSICNSALELPSVHFLCGHSFHQHCFESYSESDADCPTCLPENRKVMDMI (VPS11 RING domain (UniProt Q9H270))	0
B8 (MKRN3 RING domain)	0

Sample 3 — target: CCNE1, cyclin fold, Cln2 fusion (human); method: yeast growth competition, sequencing; matrix: yeast; setting: strong parent motif; reference: not given; direction: higher = stronger binding
Starting sequence: DTL docking peptide (human); PSSMRKICTYFHR
Variant	normalised enrichment score
PSSMAKICTYFHR [R5A]	0.909
PSSMRKICTYAHR [F11A]	0.311
PSSMRKICTAFHR [Y10A]	0.786
ASSMRKICTYFHR [P1A]	0.69
PSSMRKICAYFHR [T9A]	0.817
PSSMRKICTYFAR [H12A]	1.09
PASMRKICTYFHR [S2A]	0.65

Sample 4 — method: protein-binding microarray; molecule type: double-stranded DNA, one strand shown; matrix: in vitro; concentration: 250 nM; setting: 60-bp whole probe; together with: salmon DNA 0.4 mg/ml; reference: random background probes; direction: higher = stronger binding; shared flanks, not repeated: GCCTAGCAC … GTCTTGATTCGCTTGACGCTGCTG
Target: Interferon regulatory factor 5, full length, phosphomimetic (IRF5, Homo sapiens, UniProt Q13568-2, residues 1-514, K96S/S451D/S453D/S456D/S462D)
Sequence	log fluorescence
TTAGAACTGGGGACTGTATTAGTGCTA	-0.292 z-score
TCAGAAATCTCAATGGGACTGTGCTAG	0.015 z-score
GACGGTTTCGACACTGGGGGCGTGCTA	5.45 z-score
TCATCTCCATTTTTCTAACTGTGCTAG	0.916 z-score
TTAGGTATCCGTATCGGTTAGTGCTAG	5.35 z-score
TCTTATATACCTGTATATCTGTGCTAG	0.85 z-score
CAATATTTGCAACATCCCAATGTGCTA	0.632 z-score
TTAGGTTTCCGTTTCGGTTAGTGCTAG	9.19 z-score
TCAGCCCTCGGTTTACAACTGTGCTAG	0.159 z-score
GACGGTATCGGTCTCGAGACGTGCTAG	5.32 z-score
TCAGATATTAAACTGATACTGTGCTAG	0.646 z-score
CTCGGTTTCCAAATTGTCTCGTGCTAG	0.72 z-score
TACGGACTGGGACTGGGGACGTGCTAG	-0.467 z-score
CTAGAACTGAGACTGGATTAGTGCTAG	-0.248 z-score
TTAGGACTGGACAATCGGTTAGTGCTA	0.488 z-score
CACGGTATCGGTATCGGGACGTGCTAG	6.09 z-score
TTAGGTATCGACACTGGGTAAGTGCTA	2.55 z-score
GTAGATCTCAGTTTCGATTAGTGCTAG	9.21 z-score
TTAGGTAGCCTTCTCCTTTAGTGCTAG	-0.168 z-score
TGACCTGCTCCAAACACCTCGTGCTAG	-0.217 z-score

Sample 5 — method: protein binding microarray; molecule type: double-stranded DNA, one strand shown; matrix: in vitro; concentration: not given; reference: not given; direction: higher = stronger binding
Target: Histone acetyltransferase KAT6A, both winged helices, GST fusion (KAT6A, Homo sapiens, UniProt Q92794, residues 1-181)
Setting: 8-mer, flanks averaged, mean of 2 arrays, mostly near background
Residues (chain): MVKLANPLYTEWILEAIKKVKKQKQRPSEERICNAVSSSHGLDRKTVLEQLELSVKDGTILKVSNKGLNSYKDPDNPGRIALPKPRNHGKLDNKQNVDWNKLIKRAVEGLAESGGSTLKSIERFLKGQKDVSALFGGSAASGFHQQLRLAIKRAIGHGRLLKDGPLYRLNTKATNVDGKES
Sequence	E-score
CCCCCCAC	-0.356
CCGGGGGC	0.153
CACGCCAG	0.0237
GTGATACA	-0.0658
CATACATA	0.0132
GCATGGCC	-0.0414
GAGAATCA	-0.0607
AGATCCAT	-0.109
CTTAACCC	-0.0936
GGTCCCAC	-0.0474
CAGACATA	0.0283
CTAGTGAA	-0.128
AGTTTGCA	-0.14
ATCTGCGA	-0.16
ACCAAGAG	-0.203
CGGGAACC	0.229
CGGATCAC	0.0511
TCTGCCCA	-0.197
GTATAGGA	-0.0859
ACTCTCGA	-0.134

Sample 6 — method: RNA Bind-n-Seq; molecule type: RNA; matrix: in vitro; concentration: 200 nM; setting: whole 134-nt RNA, ends assumed; together with: 150 mM LiCl; reference: input library; direction: higher = stronger binding; all molecules: 7-deaza-guanosine replaces G
Target: Ras GTPase-activating protein-binding protein 1, full length (G3BP1, Homo sapiens, UniProt Q13283)
UniProt Q13283, sequence (whole entry, looked up): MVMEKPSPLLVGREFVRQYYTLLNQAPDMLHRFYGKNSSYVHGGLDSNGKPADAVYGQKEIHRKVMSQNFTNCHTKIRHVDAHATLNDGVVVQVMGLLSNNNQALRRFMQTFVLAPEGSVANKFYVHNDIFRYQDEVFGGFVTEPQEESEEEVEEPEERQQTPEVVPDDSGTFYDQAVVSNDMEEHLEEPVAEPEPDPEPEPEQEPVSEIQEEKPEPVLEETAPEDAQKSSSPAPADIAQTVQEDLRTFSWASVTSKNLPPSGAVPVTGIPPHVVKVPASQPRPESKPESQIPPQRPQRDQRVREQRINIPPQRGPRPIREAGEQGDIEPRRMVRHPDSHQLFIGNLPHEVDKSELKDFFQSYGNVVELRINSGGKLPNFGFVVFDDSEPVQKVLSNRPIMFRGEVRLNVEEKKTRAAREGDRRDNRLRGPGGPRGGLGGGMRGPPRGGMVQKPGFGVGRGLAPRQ
Shared flanks, not repeated: GGGAGUUCUACAGUCCGACGAUC … UGGAAUUCUCGGGUGUCAAGG
Sequence	log2 enrichment
GUCCUGUGCUACACAUCGUAUGUACCGAAUCGGGAAAAAGGGAAAGGGUUUUUUUGGGAAAGUAUUAUGUUACGCCGUUCGGAUCUGCAC	-1.1
GUCCUGUGCUACACAUCGUAUGUACCGAAUCGGGGUGGGGAAAAAAAGGGGAAAGGGGAAAGUAUUAUGUUACGCCGUUCGGAUCUGCAC	0.392
UCUUCCGUGACAUUUCAUUUGGGGAACAACUUUUCUCUUUACAGGCCCGAGUGACUAAGGGAUGUACCAUUGUUAAGCCUUUCAACCUGU	1.69
UGGGAGGUGGAUUUUGUUUAUUUUUUUAGCUCAUUUCCAGGGGUGGGAAUUUUUUUUUAAUAUGUGUCAUGAAUUAAGUUGUUUUUGAAA	-0.0881
UGGUCAUGGGAUGGAGAACCAGUUCUUCCCUUAUAUCUUCACCAUAUGACUAUUGACCCUGUCUUAGGCUGCUCCCAGGCCGUUCCAUUG	-0.0159
UAACUUUAGAGGAGGAUCUGAUGGAUAUGGCAGUGGACGUGGAUUUGGGGAUGGCUAUAAUGGGUAUGGAGGAGGACCUGGUGGUGGCAA	-0.152
UGUGCUACACAUCGUAUGUACCGAAUCGGGGAAAAAAAGGGGAAAAAAAGGGGAAAAAGGGGAAAGUAUUAUGUUACGCCGUUCGGAUCU	0.675
CCUCAAGUCCUGUGCUACACAUCGUAUGUACCGAAUCGGGGAGGAGGGGAGGGAAAGUAUUAUGUUACGCCGUUCGGAUCUGCACUUCCA	0.639
UAACUUUAGAGGAGGAUCUGAUGGAUAUGGCAGUGGACGUGGAUUUGGGGAUUGCUAUAAUGGGUAUGGAGGAGGACCUGGAGGUGGCAA	-0.825
UGGCCCUGGUGGCAUGCGGGGAGGAAGAGGUGGCCUCAUGGAUCGUGGUGGUCCCGGUGGAAUGUUCAGAGGCGGCCGUGGUGGAGACAG	0.0784
CACCGACAACACGCACCCACACAGACACAGAGGGAAGGGGUUGGGAUGGGGACAGGGUGCACAGCAGGGCGGGGUAGGACCCCAGCCCCU	0.0554

Sample 7 — method: universal PBM; molecule type: double-stranded DNA, one strand shown; matrix: in vitro; concentration: not given; direction: higher = stronger binding
Target: Sal-like protein 4, full length isoform B (SALL4, Homo sapiens, UniProt Q9UJQ4-2, residues 1-616)
Setting: 8-mer, flanks averaged, mean of replicates
Sequence	E-score
AATAGCTA	0.239
CATTTGTA	0.285
CGCTCGAC	-0.332
AAAGAATG	0.241
CAGGTGAC	-0.204
CTTGAGCA	-0.0821
CCCCCGGC	-0.313
ACCCTCAG	-0.0266
ACAGGTTC	-0.0428
ACTACATG	0.154
ACTCCCAA	0.0356
AGCAGGTA	-0.047
ATATTCCG	0.232
GCGCTGCA	-0.141
AAACTGAG	-0.155
CGTAATTC	-0.00572
AGATCCCA	-0.00208
CACAAAAA	0.25
ATGGTGAA	0.0424
ATAATGAA	0.362
AATTTAGC	0.213
AAAAACTG	0.0864
AATACTAA	0.271
GATCATGA	0.0938

Some of these lines once more (sample 6):
Sequence	log2 enrichment
UGGCCCUGGUGGCAUGCGGGGAGGAAGAGGUGGCCUCAUGGAUCGUGGUGGUCCCGGUGGAAUGUUCAGAGGCGGCCGUGGUGGAGACAG	0.0784
CACCGACAACACGCACCCACACAGACACAGAGGGAAGGGGUUGGGAUGGGGACAGGGUGCACAGCAGGGCGGGGUAGGACCCCAGCCCCU	0.0554
UGGGAGGUGGAUUUUGUUUAUUUUUUUAGCUCAUUUCCAGGGGUGGGAAUUUUUUUUUAAUAUGUGUCAUGAAUUAAGUUGUUUUUGAAA	-0.0881
UGUGCUACACAUCGUAUGUACCGAAUCGGGGAAAAAAAGGGGAAAAAAAGGGGAAAAAGGGGAAAGUAUUAUGUUACGCCGUUCGGAUCU	0.675
UAACUUUAGAGGAGGAUCUGAUGGAUAUGGCAGUGGACGUGGAUUUGGGGAUGGCUAUAAUGGGUAUGGAGGAGGACCUGGUGGUGGCAA	-0.152
UGGUCAUGGGAUGGAGAACCAGUUCUUCCCUUAUAUCUUCACCAUAUGACUAUUGACCCUGUCUUAGGCUGCUCCCAGGCCGUUCCAUUG	-0.0159
